# Experimental data gathered from unrelated publications.
# Parts stem from different laboratories: compare values within a part only.
# UniProt P10721, sequence (whole entry, unmodified, looked up): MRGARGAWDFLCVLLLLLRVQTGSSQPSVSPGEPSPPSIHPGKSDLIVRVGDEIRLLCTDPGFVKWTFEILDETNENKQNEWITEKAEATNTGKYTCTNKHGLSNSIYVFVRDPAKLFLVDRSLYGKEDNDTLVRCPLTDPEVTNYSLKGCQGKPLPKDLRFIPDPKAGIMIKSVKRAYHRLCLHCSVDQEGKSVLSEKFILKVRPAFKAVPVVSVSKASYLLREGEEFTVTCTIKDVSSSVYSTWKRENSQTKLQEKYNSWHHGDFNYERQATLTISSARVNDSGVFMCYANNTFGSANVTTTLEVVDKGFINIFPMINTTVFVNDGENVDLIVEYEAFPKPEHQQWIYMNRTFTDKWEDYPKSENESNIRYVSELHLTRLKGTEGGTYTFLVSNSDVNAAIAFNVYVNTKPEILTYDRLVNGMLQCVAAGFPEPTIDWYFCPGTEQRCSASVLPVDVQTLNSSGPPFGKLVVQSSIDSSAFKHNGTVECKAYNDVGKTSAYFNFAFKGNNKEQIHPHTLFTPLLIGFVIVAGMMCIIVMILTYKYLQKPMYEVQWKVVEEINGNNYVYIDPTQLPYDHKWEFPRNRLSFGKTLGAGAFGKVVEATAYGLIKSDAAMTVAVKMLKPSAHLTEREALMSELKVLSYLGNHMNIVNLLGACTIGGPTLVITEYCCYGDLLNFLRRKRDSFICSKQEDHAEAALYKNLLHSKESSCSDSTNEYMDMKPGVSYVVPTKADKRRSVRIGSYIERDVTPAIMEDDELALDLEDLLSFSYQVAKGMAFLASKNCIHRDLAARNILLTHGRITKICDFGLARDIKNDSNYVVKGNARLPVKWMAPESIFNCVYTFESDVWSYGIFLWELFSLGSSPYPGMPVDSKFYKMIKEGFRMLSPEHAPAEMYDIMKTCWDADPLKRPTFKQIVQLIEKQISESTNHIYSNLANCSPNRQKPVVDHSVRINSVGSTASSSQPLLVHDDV
# UniProt O75747, sequence (whole entry, looked up): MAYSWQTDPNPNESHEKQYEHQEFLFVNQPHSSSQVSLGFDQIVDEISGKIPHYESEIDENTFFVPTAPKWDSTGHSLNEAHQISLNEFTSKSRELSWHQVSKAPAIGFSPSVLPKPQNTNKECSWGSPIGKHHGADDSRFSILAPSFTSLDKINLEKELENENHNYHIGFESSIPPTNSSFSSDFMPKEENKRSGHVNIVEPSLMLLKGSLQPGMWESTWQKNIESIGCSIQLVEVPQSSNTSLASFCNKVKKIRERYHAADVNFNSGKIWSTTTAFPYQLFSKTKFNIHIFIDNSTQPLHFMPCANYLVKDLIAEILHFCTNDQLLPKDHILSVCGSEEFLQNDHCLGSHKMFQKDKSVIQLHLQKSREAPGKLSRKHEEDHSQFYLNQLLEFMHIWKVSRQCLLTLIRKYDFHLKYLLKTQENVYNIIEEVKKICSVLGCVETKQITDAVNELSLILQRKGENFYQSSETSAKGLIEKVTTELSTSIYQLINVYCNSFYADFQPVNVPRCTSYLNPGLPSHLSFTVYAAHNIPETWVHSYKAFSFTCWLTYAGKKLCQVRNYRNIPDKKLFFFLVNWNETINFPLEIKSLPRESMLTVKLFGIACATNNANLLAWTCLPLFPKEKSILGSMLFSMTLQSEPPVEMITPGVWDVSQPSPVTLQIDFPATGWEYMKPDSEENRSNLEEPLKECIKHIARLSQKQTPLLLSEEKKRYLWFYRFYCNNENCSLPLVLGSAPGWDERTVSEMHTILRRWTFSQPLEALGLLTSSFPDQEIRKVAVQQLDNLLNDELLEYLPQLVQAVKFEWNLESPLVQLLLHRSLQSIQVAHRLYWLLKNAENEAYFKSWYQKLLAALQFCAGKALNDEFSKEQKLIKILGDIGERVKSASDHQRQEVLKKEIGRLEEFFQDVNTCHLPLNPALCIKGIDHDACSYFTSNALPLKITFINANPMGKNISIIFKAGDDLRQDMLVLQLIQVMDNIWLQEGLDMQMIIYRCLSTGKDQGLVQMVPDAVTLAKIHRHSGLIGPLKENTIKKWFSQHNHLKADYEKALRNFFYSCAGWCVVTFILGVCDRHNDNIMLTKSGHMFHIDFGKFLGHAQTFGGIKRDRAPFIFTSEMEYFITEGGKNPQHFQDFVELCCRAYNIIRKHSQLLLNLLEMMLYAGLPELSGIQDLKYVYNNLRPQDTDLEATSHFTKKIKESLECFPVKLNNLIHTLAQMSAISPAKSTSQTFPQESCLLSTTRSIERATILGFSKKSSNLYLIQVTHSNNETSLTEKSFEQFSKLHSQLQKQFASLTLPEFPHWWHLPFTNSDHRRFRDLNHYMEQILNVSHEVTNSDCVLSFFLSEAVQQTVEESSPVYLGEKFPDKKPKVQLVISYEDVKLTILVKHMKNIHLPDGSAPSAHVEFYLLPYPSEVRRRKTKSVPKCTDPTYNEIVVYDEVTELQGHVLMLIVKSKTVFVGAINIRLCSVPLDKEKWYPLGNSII
# UniProt P54764, sequence (whole entry, looked up): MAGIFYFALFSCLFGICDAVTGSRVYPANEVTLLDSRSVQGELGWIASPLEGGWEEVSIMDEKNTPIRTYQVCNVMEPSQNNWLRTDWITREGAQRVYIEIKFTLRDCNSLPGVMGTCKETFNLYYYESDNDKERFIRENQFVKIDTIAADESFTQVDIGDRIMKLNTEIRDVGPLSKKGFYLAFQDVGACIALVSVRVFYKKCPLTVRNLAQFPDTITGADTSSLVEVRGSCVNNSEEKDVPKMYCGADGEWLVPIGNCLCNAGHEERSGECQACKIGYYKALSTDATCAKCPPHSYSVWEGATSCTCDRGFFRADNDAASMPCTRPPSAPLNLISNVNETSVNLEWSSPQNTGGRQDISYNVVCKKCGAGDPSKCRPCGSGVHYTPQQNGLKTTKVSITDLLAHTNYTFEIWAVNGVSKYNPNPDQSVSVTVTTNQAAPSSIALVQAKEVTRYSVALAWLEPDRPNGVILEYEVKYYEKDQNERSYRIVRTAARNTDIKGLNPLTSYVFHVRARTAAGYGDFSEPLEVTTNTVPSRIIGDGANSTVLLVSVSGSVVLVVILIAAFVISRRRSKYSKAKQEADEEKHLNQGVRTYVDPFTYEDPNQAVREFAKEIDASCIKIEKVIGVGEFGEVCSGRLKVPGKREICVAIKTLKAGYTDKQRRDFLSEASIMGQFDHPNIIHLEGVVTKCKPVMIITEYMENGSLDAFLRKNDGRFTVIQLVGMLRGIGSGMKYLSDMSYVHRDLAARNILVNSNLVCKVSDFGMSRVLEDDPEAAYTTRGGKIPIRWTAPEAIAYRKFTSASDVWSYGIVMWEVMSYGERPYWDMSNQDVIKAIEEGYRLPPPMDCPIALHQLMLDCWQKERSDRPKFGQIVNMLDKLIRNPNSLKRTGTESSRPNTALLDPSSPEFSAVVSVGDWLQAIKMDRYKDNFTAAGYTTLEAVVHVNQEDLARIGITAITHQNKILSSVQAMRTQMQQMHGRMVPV
# UniProt P28482, sequence (whole entry, looked up): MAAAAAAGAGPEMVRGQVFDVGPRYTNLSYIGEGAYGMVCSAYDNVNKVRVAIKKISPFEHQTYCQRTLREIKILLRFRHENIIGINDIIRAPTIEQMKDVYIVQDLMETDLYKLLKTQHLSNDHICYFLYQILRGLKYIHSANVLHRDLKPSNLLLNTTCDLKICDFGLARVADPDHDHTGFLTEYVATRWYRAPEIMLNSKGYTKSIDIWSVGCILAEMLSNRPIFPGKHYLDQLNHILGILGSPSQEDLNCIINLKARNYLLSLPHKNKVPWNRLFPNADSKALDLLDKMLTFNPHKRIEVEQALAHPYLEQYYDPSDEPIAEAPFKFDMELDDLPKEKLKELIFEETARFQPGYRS
# UniProt P45983, sequence (whole entry, looked up): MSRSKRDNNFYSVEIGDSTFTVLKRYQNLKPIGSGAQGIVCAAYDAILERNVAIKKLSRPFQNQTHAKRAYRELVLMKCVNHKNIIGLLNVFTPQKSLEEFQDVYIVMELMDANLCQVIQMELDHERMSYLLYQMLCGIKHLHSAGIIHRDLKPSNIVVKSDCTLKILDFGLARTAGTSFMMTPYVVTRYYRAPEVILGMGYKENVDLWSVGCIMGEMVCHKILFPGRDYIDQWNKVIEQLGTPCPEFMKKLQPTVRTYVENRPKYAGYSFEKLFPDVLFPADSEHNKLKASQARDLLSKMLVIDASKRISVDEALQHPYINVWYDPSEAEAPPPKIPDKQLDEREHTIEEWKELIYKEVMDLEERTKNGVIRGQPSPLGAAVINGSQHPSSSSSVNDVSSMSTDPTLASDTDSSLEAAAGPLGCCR

# Sample 1 — sample: hydrocarbon/water; pH: 7.4
SMILES,logD
CCC[C@@H]1NC(=O)[C@H](C)N(C)C(=O)[C@H](CC(C)C)NC(=O)Cn2cc(nn2)CN(C)C(=O)[C@H](CC(C)C)NC(=O)[C@H](C)N(C)C(=O)[C@H](CC2CCCCC2)NC(=O)[C@H](CC)N(C)C(=O)[C@H]2CCCN2C1=O,0.788
CCCN1CC(=O)N[C@@H](CC2CCCCC2)C(=O)N(C)[C@@H](C)C(=O)N[C@@H](CC(C)C)C(=O)N(C)Cc2cn(nn2)CC(=O)N[C@@H](CC(C)C)C(=O)N(C)[C@@H](C)C(=O)N[C@@H](CC(C)C)C(=O)N2CCC[C@@H]2C1=O,1.16
CCC[C@@H]1NC(=O)[C@H](C)N(C)C(=O)[C@H](CC(C)C)NC(=O)Cn2cc(nn2)CN(C)C(=O)[C@H](CC(C)C)NC(=O)[C@H](C)N(C)C(=O)[C@H](CC2CCCCC2)NC(=O)CN(CC)C(=O)[C@H]2CCCN2C1=O,0.244
CC(C)C[C@@H]1NC(=O)[C@H](C)N(C)C(=O)[C@H](CC2CCCCC2)NC(=O)[C@H](C)N(C)C(=O)[C@H]2CCCN2C(=O)[C@H](CC(C)C)NC(=O)CN(CC(C)C)C(=O)[C@H](CC(C)C)NC(=O)Cn2cc(nn2)CN(C)C1=O,1.17
CC(C)C[C@@H]1NC(=O)[C@H](Cc2ccc(O)cc2)NC(=O)[C@H]2CCCN2C(=O)[C@H](CC2CCCCC2)NC(=O)[C@H](CC2CCCCC2)NC(=O)[C@@H](CC(C)C)NC1=O,1.16
CC[C@H]1C(=O)N[C@@H](CC(C)C)C(=O)N(C)[C@@H](C)C(=O)N[C@@H](CC(C)C)C(=O)N(C)Cc2cn(nn2)CC(=O)N[C@@H](CC(C)C)C(=O)N(C)[C@@H](C)C(=O)N[C@@H](CC(C)C)C(=O)N2CCC[C@@H]2C(=O)N1C,0.234
CC(C)C[C@@H]1NC(=O)CN(Cc2ccc3c(c2)OCO3)C(=O)[C@H](C)NC(=O)[C@H](CC(C)C)N(C)C(=O)[C@H]2CCCN2C(=O)[C@H](Cc2ccccc2)NC(=O)CN(CC2CCCCC2)C(=O)[C@H](C)NC(=O)[C@H](CC(C)C)N(C)C(=O)[C@H]2CCCN2C1=O,3.04
CC(C)C[C@@H]1NC(=O)[C@H](Cc2ccc(O)cc2)NC(=O)[C@H]2CCCN2C(=O)[C@H](CC(C)C)NC(=O)[C@H](CC2CCCCC2)NC(=O)[C@@H](CC(C)C)NC1=O,0.0932
CCC[C@H]1NC(=O)[C@H](CC(C)C)NC(=O)[C@H](Cc2ccc(O)cc2)NC(=O)[C@H]2CCCN2C(=O)[C@H](CC2CCCCC2)NC(=O)[C@H](CC2CCCCC2)NC1=O,0.807
CC[C@@H]1NC(=O)[C@H](C)N(C)C(=O)[C@H]2CCCN2C(=O)[C@H](CC(C)C)NC(=O)CN(CC)C(=O)[C@H](CC(C)C)NC(=O)Cn2cc(nn2)CN(C)C(=O)[C@H](CC(C)C)NC(=O)[C@H](C)N(C)C1=O,-2.28
CCCN1CC(=O)N[C@@H](CC(C)C)C(=O)N(C)[C@@H](C)C(=O)N[C@@H](CC(C)C)C(=O)N(C)Cc2cn(nn2)CC(=O)N[C@@H](CC(C)C)C(=O)N(C)[C@@H](C)C(=O)N[C@@H](CC(C)C)C(=O)N2CCC[C@@H]2C1=O,0.145

# Sample 2 — effect on: cell-free assay; method: competition with immobilised ligand; tested at: 1 µM
# SMILES: O=C1CCc2cc(Nc3cc(OC4CCOCC4)c([N+](=O)[O-])cc3Cl)ccc2N1
target,remaining binding [%]
"Mast/stem cell growth factor receptor Kit, autoinhibited (KIT, Homo sapiens, UniProt P10721)",99
"WNK1 (Homo sapiens, UniProt Q9H4A3)",86
"IKBKB (Homo sapiens, UniProt O14920)",100
"FLT3 (Homo sapiens, UniProt P36888, F691L/ITD)",89
"DCLK1 (Homo sapiens, UniProt O15075)",95
"MAPK8 (Homo sapiens, UniProt P45983)",91
"PRKCI (Homo sapiens, UniProt P41743)",98
"EPHA4 (Homo sapiens, UniProt P54764)",84
"KIT (Homo sapiens, UniProt P10721, V559D)",100
"ALK (Homo sapiens, UniProt Q9UM73, L1196M)",100
"PIK3C2G (Homo sapiens, UniProt O75747)",94
"MAPK1 (Homo sapiens, UniProt P28482)",99
"COQ8A (Homo sapiens, UniProt Q8NI60)",100

# Sample 3 — effect on: enzyme activity; mode: inhibitor; tested at: 0.5 µM; baseline: control
# Target: Casein kinase I isoform gamma-1 (CSNK1G1, Homo sapiens, UniProt Q9HCP0)
# UniProt Q9HCP0, sequence (whole entry, looked up): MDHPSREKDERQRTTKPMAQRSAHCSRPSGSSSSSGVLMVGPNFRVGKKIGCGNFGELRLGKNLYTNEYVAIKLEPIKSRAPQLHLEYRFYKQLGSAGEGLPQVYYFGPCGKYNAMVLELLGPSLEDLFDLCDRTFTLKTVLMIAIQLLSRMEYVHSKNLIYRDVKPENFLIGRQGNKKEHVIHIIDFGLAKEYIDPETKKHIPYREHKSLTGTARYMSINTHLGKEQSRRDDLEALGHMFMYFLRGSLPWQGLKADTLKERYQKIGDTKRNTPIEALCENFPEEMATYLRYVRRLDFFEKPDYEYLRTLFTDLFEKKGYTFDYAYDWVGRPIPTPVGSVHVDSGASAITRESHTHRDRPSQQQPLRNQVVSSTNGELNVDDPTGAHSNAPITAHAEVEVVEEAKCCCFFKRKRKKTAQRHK
Compound,remaining activity [%]
NC(=O)c1ccc(N(C(N)=O)c2c(F)cccc2F)nc1-c1ccc(F)cc1F,102
Nc1ncnc2c1cnn2-c1ccccc1,94.8
CC(C)(C)n1nc(Cc2cccc3ccccc23)c2c(N)ncnc21,92.9
CCCC(=O)Oc1ccc2[nH]c(C(=O)c3cc4ccccc4[nH]3)cc2c1,76.1
CCc1[nH]c(-c2ccc(OC)cc2)nc1-c1ccncc1,101
Cc1ccc(NC2=CC(=O)c3sc(C)nc3C2=O)cc1,102
Oc1ccc(Nc2nc(-c3ccc(Cl)cc3)cs2)cc1,94.5
COc1cc(Nc2c(C#N)cnc3cc(OCCCN4CCN(C)CC4)c(OC)cc23)c(Cl)cc1Cl,95.7
CC[n+]1c(/C=C/N(C)c2ccccc2)n(-c2ccccc2)c2ccc(-c3nc4ccccc4s3)cc21,104
CC(=O)c1ccc(N2CCOCC2)cc1O,91.8
Cc1cc(Nc2nc(-c3ccccc3)nc3ccccc23)n[nH]1,75.7
N#CC(=C(N)Sc1ccc(N)cc1)c1ccccc1C(F)(F)F,89
COc1ccc(S(=O)(=O)N(CCO)c2ccccc2CN(C)CC=Cc2ccc(Cl)cc2)cc1,105
O=S(=O)(NCCNC/C=C/c1ccc(Br)cc1)c1cccc2cnccc12,97.2
Nc1nccc(-c2c(-c3ccc(F)cc3)ncn2C2CCNCC2)n1,83.1
O=C1Cc2c([nH]c3ccc([N+](=O)[O-])cc23)-c2ccccc2N1,100
CSc1nc(-c2ccnc(N[C@@H](C)c3ccccc3)c2)c(-c2ccc(F)cc2)[nH]1 (racemic),67.2
CC#CC(=O)Nc1cc2c(Nc3ccc(F)c(Cl)c3)ncnc2cn1,95.5
Fc1ccc(-c2nc3n(c2-c2ccncc2)CCS3)cc1,86.6

# Sample 4 — cell line: HH; tested at: 2 µM; time: 48 h; baseline: untreated
Structure (SMILES),viability [%]
CCOC(=O)c1cnc2ccc(-c3cncc(NS(=O)(=O)c4ccccc4)c3)cn12,23.6
Cc1[nH]c2ccccc2c1C1=C(NCCc2ccc(F)cc2)C(=O)N(C)C1=O,98.9
O=C1Nc2ccc(I)cc2/C1=C/c1cc(Br)c(O)c(Br)c1,95.2
COc1cc2ncc(-c3ccccc3)nc2cc1OC,61
CCc1cc(Nc2nccc(-c3c(-c4ccc(OC)c(C(=O)Nc5c(F)cccc5F)c4)nc4ccccn34)n2)c(OC)cc1N1CCC(N2CCN(S(C)(=O)=O)CC2)CC1,95.5
C=CC(=O)Nc1ccc2ncnc(Nc3cccc(Br)c3)c2c1,82.3
COc1ccc2cc(-c3nc(-c4ccc([S+](C)[O-])cc4)[nH]c3-c3ccncc3)ccc2c1 (stereo not shown),88.7
CC(C)(C)c1nc(-c2cccc(NS(=O)(=O)c3c(F)cccc3F)c2F)c(-c2ccnc(N)n2)s1,49.1
Cc1ccc(-n2nc(C(C)(C)C)cc2NC(=O)Nc2ccc(OCCN3CCOCC3)c3ccccc23)cc1,73.1
O=C(NOCC(O)CO)c1cc(Br)c(F)c(F)c1Nc1ccc(I)cc1F (stereo not shown),96
O=C(Cc1ccc(-c2ccc(OCCN3CCOCC3)cc2)cn1)NCc1ccccc1,26.7
CN(C)CCCn1cc(C2=C(c3c[nH]c4ccccc34)C(=O)NC2=O)c2ccccc21,64.9
CNC(=O)c1cc(Oc2ccc(NC(=O)Nc3cc(C(C)(C)C)nn3-c3ccc4ncccc4c3)c(F)c2)ccn1,76.6
Cc1cc(CS(=O)(=O)c2ccccc2)cc(OCc2ccc(CN3CCC[C@@H]3CO)cc2)c1,95.2
O=C1NC(=O)C(=Cc2ccc(-c3ccc(F)cc3)o2)S1 (stereo in doubt),86.7
Fc1cc(-c2cccc3ncc(-c4cnn(C5CCNCC5)c4)nc23)cc(F)c1CN1CCOCC1,69.9
N[C@@H]1CCCN(c2c(/C=C3\SC(=O)NC3=O)cccc2-c2ccccc2)C1,69.4
C=CC(=O)Nc1cccc(Nc2nc(Nc3ccc(Oc4ccnc(C(=O)NC)c4)cc3)ncc2F)c1,73.8
CS(=O)(=O)CCNCc1ccc(-c2ccc3ncnc(Nc4ccc(OCc5cccc(F)c5)c(Cl)c4)c3c2)o1,90.3
COc1cccc(-c2cc(=O)c3ccccc3o2)c1N,99.9
Cc1cc(C(C)Nc2ccccc2)c2nc(N3CCOCC3)cc(=O)n2c1 (stereo not shown),89.5

# For quick reference, copied from above (sample 3):
Compound,remaining activity [%]
CCCC(=O)Oc1ccc2[nH]c(C(=O)c3cc4ccccc4[nH]3)cc2c1,76.1
CCc1[nH]c(-c2ccc(OC)cc2)nc1-c1ccncc1,101
Cc1ccc(NC2=CC(=O)c3sc(C)nc3C2=O)cc1,102
Oc1ccc(Nc2nc(-c3ccc(Cl)cc3)cs2)cc1,94.5
COc1cc(Nc2c(C#N)cnc3cc(OCCCN4CCN(C)CC4)c(OC)cc23)c(Cl)cc1Cl,95.7
CC[n+]1c(/C=C/N(C)c2ccccc2)n(-c2ccccc2)c2ccc(-c3nc4ccccc4s3)cc21,104
